Published values of several laboratories.
Protocols differ between the studies behind these lines. “And” joins repeats or separate records; there may be more than shown. ± gives the spread as reported.
Cell line: MDA-MB-231

| Structure (SMILES) | test | conditions | how to read | endpoint | value |
| --- | --- | --- | --- | --- | --- |
| CCCNC(=O)[C@H]1O[C@@H]1C(=O)N[C@H](C(=O)N1CCC[C@H]1C(=O)OCC1=C2C(C)=CC(C)=[N+]2[B-](C)(C)n2c(C)cc(C)c21)[C@@H](C)CC | cell viability, MTT | concentration not given, 72 h, irradiated 15 min up to 470 nm | – | EC50 | 0.78 ± 0.14 µM |
| COc1c(C)c(O)c(C(=O)C=Cc2ccccc2)c(OC)c1C | – | – | relative to: CL over MDA-MB-231 | selectivity index | 0.97 |
| C[C@@H]1CC[C@@H]([C@@](O)(CNCc2cccc(F)c2)COCc2ccccc2)[C@H](OCc2ccccc2)C1 | cell growth or viability, MTT | 10 µM, 72 h | – | inhibition | 93.7% |
| CC[C@H](C)/C=C/C=C/C=C/C(O)=C/C(=O)C(F)(Cl)Cl | wound healing | 1 µM, 24 h | relative to: DMSO | cell migration | 90 ± 18% |
| CN(C)CCN1CCN(c2ccc3nc(-c4ccc5nc(-c6ccc(C(F)(F)F)cc6)[nH]c5c4)[nH]c3c2)CC1 | SRB | 10 µM, 48 h | – | growth percent | 63.1% |
| C[C@@H]1CC[C@@H]([C@](O)(CNCc2ccc(F)cc2)COCc2ccccc2)[C@H](OCc2ccccc2)C1 | cell growth or viability, MTT | 30 µM, 72 h | – | inhibition | 94.4% |
| CCCNC(=O)[C@H]1O[C@@H]1C(=O)N[C@H](C(=O)N1CCC[C@H]1C(=O)OCC1=C2C(C)=CC(C)=[N+]2[B-](F)(F)n2c(C)cc(C)c21)[C@@H](C)CC | cell viability, MTT | concentration not given, 4 h, irradiated 15 min up to 470 nm | – | EC50 | > 50 µM |
| CCN(C(=O)c1cc(F)ccc1Oc1nncnc1N1CCC2(C1)CN([C@H](CCCN(C)CCOC)C(C)C)C2)C(C)C | cell growth or viability | 7 days | – | GI50 | > 10 µM |
| C[C@@H]1CC[C@@H]([C@@](O)(CNCc2ccccc2F)COCc2ccccc2)[C@H](OCc2ccccc2)C1 | cell growth or viability, MTT | 10 µM, 72 h | – | inhibition | 83.8% |
| CC(=O)[O][Pd][c]1ccccc1N1N=C(C)C(C)(C)C1=O.CC(=O)[O][Pd][c]1ccccc1N1N=C(C)C(C)(C)C1=O | JC-1 flow cytometry | 25 µM, 24 h | – | cells with decreased ΔΨm | 9.28 ± 1.21% |
| COc1ccc(COC[C@](O)(CNCc2ccc(F)cc2)[C@@H]2CC[C@@H](C)C[C@H]2OCc2ccc(OC)cc2)cc1 | cell growth or viability, MTT | 30 µM, 72 h | – | inhibition | 100% |
| CCCNC(=O)[C@H]1O[C@@H]1C(=O)N[C@H](C(=O)N1CCC[C@H]1C(=O)OCC1=C2C(C)=CC(C)=[N+]2[B-](CC)(CC)n2c(C)cc(C)c21)[C@@H](C)CC | cell viability, MTT | concentration not given, 4 h, irradiated 15 min up to 470 nm | – | EC50 | > 50 µM |
| CCc1c(C)c2ccc(OC(C)C)c(C)c2oc1=O | cell growth or viability, MTT | 125 µg/mL | – | viability | 9.32% |
| Oc1ccnc(-c2cc(O)ccn2)c1.[Cl-].[Cl-].[Ru+2].c1ccc(-c2ccnc3c2ccc2c(-c4ccccc4)ccnc23)cc1.c1ccc(-c2ccnc3c2ccc2c(-c4ccccc4)ccnc23)cc1 | cell viability | – | relative to: dark EC50 over light EC50 | phototoxicity index | 100 |
| CC(=O)[O][Pd][c]1ccccc1-n1nc(C)cc1C.CC(=O)[O][Pd][c]1ccccc1-n1nc(C)cc1C | annexin V/PI flow cytometry | 25 µM, 24 h | – | late apoptotic cells | 25.9 ± 0.72% |
| O=c1c(-c2cnn(-c3ccccc3)c2)c(C(F)(F)F)oc2c(O)c(O)ccc12 | apoptosis, flow cytometry | – | – | EC50 | > 100 µM |

| Structure (SMILES) | test | conditions | how to read | endpoint | value |
| --- | --- | --- | --- | --- | --- |
| COc1cccc2c1cc1c3c(cc4c(c32)OCO4)[C@@H]2c3c4c5c(cc6c(c5c5cccc(OC)c35)OCO6)CCN4[C@@H]2N1C (racemic) | cytotoxicity, MTT | 50 µg/mL, 48 h | – | inhibition | < 50% |
| CCCc1cc2cc(-n3nc(CC)c4c3CC(C)(C)CC4=O)cc(N3CCC(O)CC3)c2c(=O)[nH]1 | Western blot | concentration not given, 24 h | – | c-Src level | no effect |
| COc1ccccc1CNC[C@@](O)(COCc1ccccc1)[C@@H]1CC[C@@H](C)C[C@H]1OCc1ccccc1 | cell growth or viability, MTT | 10 µM, 72 h | – | inhibition | 95% |
| Cc1nc2c(F)cc(-c3nc(Nc4ccc(CNC(=O)CCCCCCC(=O)NO)cc4)ncc3F)cc2n1C(C)C | cell growth or viability, CCK-8 | 0.3 µM, 48 h | – | inhibition | 98.7% |
| C[C@@H]1O[C@H]2O[C@@H]3C4(O)C(=O)c5cccc(O)c5C(=O)C4(O)O[C@]3(C)[C@]21O (stereo partly shown) | cell growth or viability, MTT | 48 h | – | EC50 | 64.5 µM |
| Cc1cc(-c2ccc(S(=O)(=O)C3CC(C(=O)NC4(C#N)CC4)N(C(=O)C4(C(F)(F)F)CC4)C3)c(C(F)(F)F)c2)ccn1 (stereo not shown) | Western blot | concentration not given, added: ionizing radiation 10 Gy | – | cleaved PARP1 level | increased |
| COc1ccc(CNC[C@](O)(COCc2ccccc2)[C@@H]2CC[C@@H](C)C[C@H]2OCc2ccccc2)cc1 | cell growth or viability, MTT | 10 µM, 72 h | – | inhibition | 97.9% |
| COc1ccccc1-c1ccncc1C(=O)Nc1nnc(OCc2ccc(Cl)cc2)s1 | – | 0.1875 µM, single replicate | relative to: untreated | colony survival | 90.7% and 103% |
| CC(=O)OCC1=C2C(C)=CC(C)=[N+]2[B-](C)(C)n2c(C)cc(C)c21 | cell growth or viability, MTT | dark | – | EC50 | > 50 µM |
| CC(=O)OC[C@H]1O[C@@H](n2cc(CSc3nc4ccccc4n3Cc3cn([C@@H]4O[C@H](COC(C)=O)[C@@H](OC(C)=O)C(OC(C)=O)[C@H]4OC(C)=O)nn3)nn2)[C@H](OC(C)=O)C(OC(C)=O)[C@@H]1OC(C)=O (stereo in doubt) | MTT | 31.3 ppm | – | cytotoxicity | 88.6% |
| CC(C)c1ccc(N(C)c2ccc3c(c2)OCC[C@H]3CNc2cnccc2C(=O)O)cc1 | flow cytometry, propidium iodide | 0.01 µM, 24 h | – | S-phase cells | 33% |
| CCCc1cc2cc(-n3nc(C(F)(F)F)c4c3CC(C)(C)CC4=O)cc(N3CCC(O)CC3)c2c(=O)[nH]1 | Western blot | concentration not given, 24 h | – | Hsp90α and Hsp90β levels | no effect |
| CC(=O)[O][Pd][c]1cc(C)ccc1N1N=C(C)C(C)(C)C1=O.CC(=O)[O][Pd][c]1cc(C)ccc1N1N=C(C)C(C)(C)C1=O | annexin V/PI flow cytometry | 25 µM, 24 h | – | late apoptotic cells | 8.48 ± 0.52% |
| C[C@@H]1CC[C@@H]([C@@](O)(COCc2ccccc2)Cn2cnc3ccccc32)[C@H](OCc2ccccc2)C1 | cell growth or viability, MTT | 10 µM, 72 h | – | inhibition | 30.8% |
| Cc1nc2c(F)cc(-c3nc(Nc4ccc(CNC(=O)CCCC(=O)NO)cc4)ncc3F)cc2n1C(C)C | cell growth or viability, CCK-8 | 0.3 µM, 48 h | – | inhibition | 77.8% |

For quick reference, copied from above:
| Structure (SMILES) | test | conditions | how to read | endpoint | value |
| --- | --- | --- | --- | --- | --- |
| COc1c(C)c(O)c(C(=O)C=Cc2ccccc2)c(OC)c1C | – | – | relative to: CL over MDA-MB-231 | selectivity index | 0.97 |
| C[C@@H]1CC[C@@H]([C@@](O)(CNCc2cccc(F)c2)COCc2ccccc2)[C@H](OCc2ccccc2)C1 | cell growth or viability, MTT | 10 µM, 72 h | – | inhibition | 93.7% |
| CC[C@H](C)/C=C/C=C/C=C/C(O)=C/C(=O)C(F)(Cl)Cl | wound healing | 1 µM, 24 h | relative to: DMSO | cell migration | 90 ± 18% |
